Published values collected from several papers.
Protocols differ between the studies behind these lines. ± gives the spread as reported.

| SMILES | organism | test | test system | setting | EC50 |
| --- | --- | --- | --- | --- | --- |
| Cc1nc(CN)cc2c1[nH]c1ccccc12 | HIV-2 | cytopathic effect | MT4, ROD | 5 days | > 100 µM |
| CCCCC#Cc1cn([C@@H]2O[C@H](CO)[C@@H](O)[C@H]2O)c2ncnc(C)c12 | Leishmania infantum | parasite growth, imaging | mouse Macrophage | 5 days, intracellular, amastigote | 2.38 µM |
| COc1cc(NC(C)CCCNC(=O)c2ccccc2N)c2ncccc2c1 (stereo not shown) | HIV-2 | cytopathic effect | MT4, ROD | 5 days | > 100 µM |
| CCCCCCc1cn([C@@H]2O[C@H](CO)[C@@H](O)[C@H]2O)c2ncnc(C)c12 | Leishmania infantum | parasite growth, imaging | mouse Macrophage | 5 days, intracellular, amastigote | > 64 µM |
| O=[N+]([O-])c1cn2c(n1)O[C@@H](COc1ccc(-c3ccc(F)cc3)nc1)CC2 | Leishmania panamensis | parasite growth | mouse Peritoneal macrophage | 72 h, intracellular, amastigote | 0.77 µM |
| N=C(N)N | Enterovirus D68 | cytopathic effect, neutral red uptake | A549, US/KY/14-18953 | – | 32 ± 4.8 µM |
| CN(C)CCNC(=O)c1cc(-c2ccccc2)nc2ccccc12 | Enterovirus D68 | cytopathic effect | RD, US/KY/14-18953 | bound over five strains | < 1 µM |
| Cc1c(C(=O)Nc2ccc3c(c2)B(O)OC3)nnn1-c1ccccn1 | Leishmania panamensis | parasite growth | mouse Peritoneal macrophage | 72 h, intracellular, amastigote | 18.3 µM |
| Cc1ncnc2c1c(Cl)cn2[C@@H]1O[C@H](CO)[C@@H](O)[C@H]1O | Leishmania infantum | parasite growth, imaging | mouse Macrophage | 5 days, intracellular, amastigote | 3 µM |
| CC(C)CC(=O)O[C@H]1CC[C@]2(C)[C@H]3CC[C@@H]4C5=CC(C)(C)CC[C@]5(C(=O)O)CC[C@@]4(C)[C@]3(C)CC[C@H]2C1(C)C | HIV-1 IIIB | viral replication, refers to: p24 antigen | MT-2 | day 4 | > 10 µM |
| CCc1cn([C@@H]2O[C@H](CO)[C@@H](O)[C@H]2O)c2ncnc(C)c12 | Leishmania infantum | parasite growth, imaging | mouse Macrophage | 5 days, intracellular, amastigote | 1.79 µM |
| CCCn1/c(=N/C(=O)c2cccc(C(N)=O)c2)[nH]c2ccccc21 | Plasmodium berghei | liver stage parasite load, inhibitor, luciferase | HepG2 | compound added 4 h post infection | 11 µM |
| COc1ccc(NC(=O)N2CCCCN3[C@H](CO)[C@H](c4ccc(C#Cc5ccccc5)cc4)[C@@H]3C2)cc1 | Plasmodium cynomolgi | liver-stage large forms (schizonts) | primary rhesus hepatocytes, M strain | – | 2.86 µM |
| CCC(=O)O[C@H]1CC[C@]2(C)[C@H]3CC[C@@H]4C5=CC(C)(C)CC[C@]5(C(=O)O)CC[C@@]4(C)[C@]3(C)CC[C@H]2C1(C)C | HIV-1 IIIB | viral replication, refers to: p24 antigen | MT-2 | day 4 | > 10 µM |
| COc1ccc(NC(=O)N2CCCCN3[C@H](CN(C)C)[C@H](c4ccc(C#Cc5ccccc5)cc4)[C@@H]3C2)cc1 | Plasmodium cynomolgi | liver-stage large forms (schizonts) | primary rhesus hepatocytes, M strain | – | 1.04 µM |
| Cc1ncnc2c1c(Br)cn2[C@@H]1O[C@H](CO)[C@@H](O)[C@H]1O | Leishmania infantum | parasite growth, imaging | mouse Macrophage | 5 days, intracellular, amastigote | 24.1 µM |
| CC(C)C(=O)O[C@H]1CC[C@]2(C)[C@H]3CC[C@@H]4C5=CC(C)(C)CC[C@]5(C(=O)O)CC[C@@]4(C)[C@]3(C)CC[C@H]2C1(C)C | HIV-1 IIIB | viral replication, refers to: p24 antigen | MT-2 | day 4 | > 10 µM |
| O=C(NCCN1CCCC1)c1cc(-c2cccs2)nc2ccccc12 | Enterovirus D68 | viral replication, CPE | RD, US/KY/14-18953 | 3 days | ≤ 0.1 µM |
| CCc1cn([C@@H]2O[C@H](CO)[C@@H](O)[C@H]2O)c2ncnc(CC)c12 | Leishmania infantum | parasite growth, imaging | mouse Macrophage | 5 days, intracellular, amastigote | > 64 µM |
| COc1cc(NC(C)CCCNC(=O)c2cc(Br)ccc2N)c2ncccc2c1 (stereo not shown) | HIV-2 | cytopathic effect | MT4, ROD | 5 days | > 100 µM |
| CC(C)=Cc1cn([C@@H]2O[C@H](CO)[C@@H](O)[C@H]2O)c2ncnc(C)c12 | Leishmania infantum | parasite growth, imaging | mouse Macrophage | 5 days, intracellular, amastigote | > 64 µM |
| CC1(C)C=C2[C@H]3CC[C@@H]4[C@@]5(C)CC[C@H](OC(=O)C(C)(C)C)C(C)(C)[C@@H]5CC[C@@]4(C)[C@]3(C)CC[C@@]2(C(=O)O)CC1 | HIV-1 IIIB | viral replication, refers to: p24 antigen | MT-2 | day 4 | > 10 µM |

For quick reference, copied from above:
| SMILES | organism | test | test system | setting | EC50 |
| --- | --- | --- | --- | --- | --- |
| CCc1cn([C@@H]2O[C@H](CO)[C@@H](O)[C@H]2O)c2ncnc(C)c12 | Leishmania infantum | parasite growth, imaging | mouse Macrophage | 5 days, intracellular, amastigote | 1.79 µM |
| CCCn1/c(=N/C(=O)c2cccc(C(N)=O)c2)[nH]c2ccccc21 | Plasmodium berghei | liver stage parasite load, inhibitor, luciferase | HepG2 | compound added 4 h post infection | 11 µM |
